Experimental data gathered from unrelated publications.
Parts stem from different laboratories: compare values within a part only. Positions count from the first letter of the parent shown.

Series 1 — technique: RNA Bind-n-Seq; molecule type: RNA; medium: in vitro; concentration: 365 nM; relative to: no-protein control; direction: higher = stronger binding; quantity: RBNS enrichment (R)
Target: RNA binding protein fox-1 homolog 2, RRM domain, GST-SBP tag (RBFOX2, Homo sapiens, UniProt O43251-10, residues 100-194)
Notes: natural RNA segment, single round, ends assumed
Shared flanks, not repeated: GGGAGUUCUACAGUCCGACGAUC … UGGAAUUCUCGGGUGCCAA
Residues (chain): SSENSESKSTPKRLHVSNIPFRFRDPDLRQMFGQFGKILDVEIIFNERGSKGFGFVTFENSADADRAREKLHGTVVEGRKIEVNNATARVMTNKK
AAAAAAAGCCUUAGUGGCCUGGUUGUUCAAAGGAUAAGAAUAGCUUUAUCCUGCACUCAGUACCCGAACUCACUUCAGUAUGCUUACUGAGGCCAUGAGAACCUGAGGGG: 0.351
AUUCGGCUUUCAACUUUGCUACCAUCUUCCCUGAAGCAGGAAAAUGAACAUGGACUUAAAUGUUCUUUGAAAAAACCAAAGUUUUAAGAUUUGCUGUGUGAUGAAGUGAC: 0.351
UAGAGCAGUGCUAGCUAGCAUUACUGGCUUCCUGCUACUUUUUCGUUUUUUUAAAUUUUUUAUUCUGAUUGCUGUAUUAUAUUGGGGAUGUUCUAAACAACCAAACUAAA: 0.582
AAAAGGGAGAGAGAAAAGACAGGAACUGAUGAGAUAGUUUGAAAGCUGAAGGAGUUCUGAGUUUGUUUAGUUCUUUAUUCCAUCUCUGUGCGGCCUCCCGAGCCUACGUU: 1.46
UGCAGGCAUGGUCCCUGGAGCCGAGCCUUCACCACGCACUCGUCCAAGUUCGGAUGCGGGAACCUGGUCCCAGCUUGAGUUCCUGCCUUUCCCACCACAAAUUAUCAACU: 0.315
AAAAUGUCAGUAGUGCUAAUGCAUUUUGCACUAGAACGCUUCGGGAAAAUAUUCAUGCUUGCCAUCUGUUCAUUUCUAAAUUUAUAUUCAUAAAGUUACAGUUUGAUACA: 0.614
UGAGUCUGCAGGUCCAGUGUGGUUUAGGUCAGUCAGGGGCCAGCUGGCCUCUGACUGCAUUGCUUUAGGUCGUAUUCAAACUCUCUUAAACAUUGUGCCAAGAAACGAUU: 0.35
AUUUCUGUUUCUGCUUCUCCCUUGGCCAGUGUCAUUGAUGCAGAUCAUUGCAUACAACAGCACAGCAAAUUGCGCCAAGUCAGUGUGUGAAUGGGAAUUAGCAAUGCACG: 3.73

Series 2 — target: CCNA1, cyclin fold, Cln2 fusion (human); technique: yeast growth competition, sequencing; medium: yeast; notes: weak parent motif; relative to: not given; direction: higher = stronger binding; quantity: normalised enrichment score
Starting sequence: WEE1 docking peptide (human); HKTFRKLRLFDTP
K2I: 0.05
D11R: 0.219
T3E: -0.17
R5I: -0.144
K6E: 0.149
L7S: 0.285
T12L: 0.291
F4C: 0.203
F4W: 0.727
R8F: -0.228
F10D: 0.0356
R8I: 0.697
P13R: -0.0904
L7P: 0.384
D11M: 0.0566
F4I: 0.274
F4V: 0.254
K6T: 0.318
K6C: 0.353
F10I: 0.364
K2E: 0.166
R5A: -0.475
L9M: 0.352
D11W: 0.249
F10V: 0.234

Series 3 — technique: RNA Bind-n-Seq; molecule type: RNA; medium: in vitro; concentration: 200 nM; notes: whole 134-nt RNA, ends assumed; with: 150 mM KCl; relative to: input library; direction: higher = stronger binding; quantity: log2 enrichment
Target: Fragile X messenger ribonucleoprotein 1, C-terminal low-complexity region (Fmr1, Mus musculus, UniProt P35922)
Shared flanks, not repeated: GGGAGUUCUACAGUCCGACGAUC … UGGAAUUCUCGGGUGUCAAGG
GCAGGAAGUAAAGACAAAUGGAAAUGCUUCGGAUAGUGGCAGGGGUGGGGGUUGCUAAGGAAAGGGUGGGAUGGGAGUGGGUAAAGAGUU: 0.428
AAGUCCUGUGCUACACAUCGUAUGUACCGAAUCAAAUUUAAAUUUAAACCCCCAAAAAAGUAUUAUGUUACGCCGUUCGGAUCUGCACUU: 0.227
CUCAAGUCCUGUGCUACACAUCGUAUGUACCGAAUCGGGUGGGUGGGGUGGGGAAAGUAUUAUGUUACGCCGUUCGGAUCUGCACUUCCA: 0.608
ACCAUGCAGGUGGGCAUCUUUGGGAAGUCGGGCAAGGGGGGGAUAGGGAGGGGGGUAACACUUUGGGAACAGGUGGUCCCAGGUCGUUUC: 1.11
AGUCCUGUGCUACACAUCGUAUGUACCGAAUCGGGGUGGGGUGGGGAAAAAAAGGGGAAAGUAUUAUGUUACGCCGUUCGGAUCUGCACU: 0.772
UAACUUUAGAGGAGGAUCUGAUCGAUAUGGCAGUGGACGUGGAUUUGGGGAUGGCUAUAAUGGGUAUGGAGGAGGACCUGGAGGUGGCAA: 0.444
UCCUGUGCUACACAUCGUAUGUACCGAAUCGGGGAAAAAGGGGAAAGGGGUUUUUGGGGAAAGUAUUAUGUUACGCCGUUCGGAUCUGCA: 0.701
ACCAUGCAGGUGGGCAUCUUUGGGAAGUGGGGCAAGGGGGGGACAGGGAGGGGGGUAACACUUUGGGAACAGGUGGUCCCAGGUCGUUUC: 0.709
CUGUGCUACACAUCGUAUGUACCGAAUCGGCCCCCCCGGGGCCCCCCCGGGGCCCCCCCGGGAAAGUAUUAUGUUACGCCGUUCGGAUCU: -1.69

Series 4 — technique: DHFR PCA, deep sequencing; medium: yeast; with: (+)-ABA 0.11 µM; relative to: wild-type fitted maximum; direction: higher = stronger binding; quantity: relative binding score
Target: ABI1, truncated, D143A, DHFR fusion (Arabidopsis thaliana)
Notes: methotrexate growth selection, single substitutions
Starting sequence: PYL1, truncated, DHFR fusion (Arabidopsis thaliana); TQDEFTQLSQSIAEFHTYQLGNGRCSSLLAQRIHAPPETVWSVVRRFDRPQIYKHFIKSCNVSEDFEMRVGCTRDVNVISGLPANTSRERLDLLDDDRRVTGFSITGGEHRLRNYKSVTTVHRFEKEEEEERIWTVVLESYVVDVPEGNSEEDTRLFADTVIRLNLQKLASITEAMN; partner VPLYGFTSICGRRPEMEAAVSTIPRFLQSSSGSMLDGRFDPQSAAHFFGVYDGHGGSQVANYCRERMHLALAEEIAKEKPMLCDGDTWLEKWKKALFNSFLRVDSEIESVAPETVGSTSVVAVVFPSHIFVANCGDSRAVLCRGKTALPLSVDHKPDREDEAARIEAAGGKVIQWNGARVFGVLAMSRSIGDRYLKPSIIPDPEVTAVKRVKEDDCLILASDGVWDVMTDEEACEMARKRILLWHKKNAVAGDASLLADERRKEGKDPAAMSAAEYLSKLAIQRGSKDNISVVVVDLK
N177R: 15.9%
D144Y: -14.4%
C72A: 66.1%
F103Y: 63.9%
S42N: 21%
D97W: -7.03%
T101Y: 1.73%
G102A: 9.31%
R45H: -7.25%
G23F: -4.71%
L156C: 28.9%
F47C: 2.65%
I162W: 1.98%
S80V: 3.96%
Y141N: 2.4%
E109L: 1.08%
L82W: 53.1%
I79V: 51.4%
L166S: -1.64%

Repeated from above (series 4):
F103Y: 63.9%
S42N: 21%
G23F: -4.71%
I162W: 1.98%
L166S: -1.64%
G102A: 9.31%
R45H: -7.25%
L156C: 28.9%
